Results collected from several papers.
Each numbered part is a random draw from the data of one study; scales do not carry over between parts. Changes are numbered by the printed parent chain.

Set 1
Target: RING finger protein unkempt homolog, zinc fingers 1-6, GST-SBP tag (UNK, Homo sapiens, UniProt Q9C0B0, residues 30-357)
Technique: RNA Bind-n-Seq
Molecule type: RNA
Matrix: in vitro
Tested at: not given
Setting: RNA with constant flanks, human-mouse chimeric sites, ends assumed
Baseline: input RNA pool
Direction: higher = stronger binding
Constant ends, left off below: GGGAGUUCUACAGUCCGACGAUC … CAACAGAGGAUUGAGCAUCA
Residues (chain): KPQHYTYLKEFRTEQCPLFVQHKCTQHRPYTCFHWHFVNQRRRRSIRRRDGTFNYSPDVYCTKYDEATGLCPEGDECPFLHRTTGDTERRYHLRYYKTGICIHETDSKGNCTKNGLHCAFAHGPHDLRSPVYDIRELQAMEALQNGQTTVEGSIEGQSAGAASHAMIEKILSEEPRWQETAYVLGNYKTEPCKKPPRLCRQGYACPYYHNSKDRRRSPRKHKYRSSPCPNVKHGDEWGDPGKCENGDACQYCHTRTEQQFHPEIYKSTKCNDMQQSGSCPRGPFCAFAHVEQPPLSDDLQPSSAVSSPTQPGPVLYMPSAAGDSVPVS
Strand	bound/input enrichment [ratio]
UUGAAAACAAACUGAUUUAAGUUUGAGUAUCACAAUGUUAGCUUUCUAAUUCCAUAAAAGUACUUGGUUUUUACAGUUUAUAAUCUGACAUCACCCCAGCGCCAUUUGUAAAGAGCAACU	0.398
CUGUGACCACAAGAUCCUACCUGAGUGGCAGCUGAAGUUGACUCCCUCUCCUUGCCUGCCUAGUUUCCUUUUGUUCCCCCAUCCCCCAGUGUCGGCUGAGAUGUUGCCUCUGCACGGUUC	2.65
AUAGAUGAAAUUGAUGUGGACCAGGAAGGAAUUGCUGAAAUGAUGCUGGAUGAAAAUGCUAUUGCUCAGGUCCCACGCCCUGGCACAUCUUUGAAGCUCCCUGGCACUAACCAAACAGGA	0.31
AUGGAGAAGGAUUCUCUGCCCCGCUUUGUGCGCUCUGAGUUUUAUCAGGAGCUAAUCAAGUAGUCAUCUGGUCAGGCUUCCAAAAGUUCCUGUGAGUGUUGAGUUACAUCCUUUGUAGCA	0.394
CCUGCUCAGAUCACCAUGAAAGUAAUCCAAGGCUUGUAUAGUGGGGUCACCACAGUGGAACUGGACACCCUGGCUGCUGAGACAGCCGCGACCUUGACUACUAAGCACCCUGACUAUGCC	0.157
CUGUGUGUGCUGAAUAAUGAUUUGUGAAAGAAGUUUUUCCAAGCUGUAACCCAUGCUGUUAUUAUAGUUGCUGCAAAAUGUUCUUCCUGAUAUUGAUGUUUGUUUACAACUGAAGGUCUC	0.189
GAAACUAUUCCUAAAGAGGAGAAAGCUGAAAAGGAAGCUCGGAGACCAUCUCUUGAGAAACAUAGAAAAGAAAAGCCUUUUAAAACCGGGAGAGGCAGAAUUUCCACUCCUGAAAGAAAA	0.527
UGACAAGGGCACUGCAGAGCCAUGCCUUUCUUGGACAUACAGAAAAAGCUGGGCAUCAGCCUGGACCGAUGGUUGACGUUCCUAAGCGCAGAACAGCCCUAUAAGAACGCCGCUCGGUGC	0.0847
CAGCCUCAGAGCCCAGACUUCCUGGACAUCACCAACCCUAAAGCGGUAUUAGAAAAUGCAUUGAGAAACUUCGCCUGUCUGACGACUGGAGAUGUGAUUGCUAUCAACUACAAUGAGAAG	0.633
GGUGGGGUGGUCAUUGCCGUUUGAGCUCUGCUGAUUCAUGAGUCGCCUUCAAAACUCUCGUGUAGGGUUGACAAUGUGGGGGGGUGGGGGAUCCAGCUUAUUCUUUUUCCCCAGCCCCCA	3.93
CAGUCCCCGUGUCCCAGUGCAGGACGAUGUGAACAAAAACUCAAAGCGGACCCUCUACUGUAGUUGAUGAUUCUCGAGUGCCAUUAUUAUUGUUUGUCUUUUUUUUUUUUUUUUUAAAGA	1.55

Set 2
Target: TAR DNA-binding protein 43, full length, His tag (TARDBP, Homo sapiens, UniProt Q13148, residues 1-414)
Technique: RNA Bind-n-Seq
Molecule type: RNA
Matrix: in vitro
Tested at: 20 nM
Setting: 6-mer, flanks averaged, single round
Together with: 150 mM KCl
Baseline: input library
Direction: higher = stronger binding
Strand	6-mer enrichment (R)
UUUAGC	0.625
AGGUGC	1.33
AUGCCG	0.847
CACGAA	0.718
CCUUAG	0.652
GUCAUA	0.635
UAACAC	0.64
GCGACU	0.872
UCGGGA	1.77
CCAUCC	0.593
CUUGUA	0.658
UACUAA	0.641
GGACCG	1.8
GAGCAA	0.93
CAACAG	0.744
CCAGGU	0.884
CUGAGC	0.794
CUUAAG	0.627
GUUACG	0.871
ACCCCG	0.677
ACCUAC	0.613
CGCGCG	1.49
GGUUCG	1.46

Set 3
Target: Sal-like protein 4, full length isoform A (SALL4, Homo sapiens, UniProt Q9UJQ4, residues 1-1053)
UniProt Q9UJQ4, sequence (whole entry, looked up): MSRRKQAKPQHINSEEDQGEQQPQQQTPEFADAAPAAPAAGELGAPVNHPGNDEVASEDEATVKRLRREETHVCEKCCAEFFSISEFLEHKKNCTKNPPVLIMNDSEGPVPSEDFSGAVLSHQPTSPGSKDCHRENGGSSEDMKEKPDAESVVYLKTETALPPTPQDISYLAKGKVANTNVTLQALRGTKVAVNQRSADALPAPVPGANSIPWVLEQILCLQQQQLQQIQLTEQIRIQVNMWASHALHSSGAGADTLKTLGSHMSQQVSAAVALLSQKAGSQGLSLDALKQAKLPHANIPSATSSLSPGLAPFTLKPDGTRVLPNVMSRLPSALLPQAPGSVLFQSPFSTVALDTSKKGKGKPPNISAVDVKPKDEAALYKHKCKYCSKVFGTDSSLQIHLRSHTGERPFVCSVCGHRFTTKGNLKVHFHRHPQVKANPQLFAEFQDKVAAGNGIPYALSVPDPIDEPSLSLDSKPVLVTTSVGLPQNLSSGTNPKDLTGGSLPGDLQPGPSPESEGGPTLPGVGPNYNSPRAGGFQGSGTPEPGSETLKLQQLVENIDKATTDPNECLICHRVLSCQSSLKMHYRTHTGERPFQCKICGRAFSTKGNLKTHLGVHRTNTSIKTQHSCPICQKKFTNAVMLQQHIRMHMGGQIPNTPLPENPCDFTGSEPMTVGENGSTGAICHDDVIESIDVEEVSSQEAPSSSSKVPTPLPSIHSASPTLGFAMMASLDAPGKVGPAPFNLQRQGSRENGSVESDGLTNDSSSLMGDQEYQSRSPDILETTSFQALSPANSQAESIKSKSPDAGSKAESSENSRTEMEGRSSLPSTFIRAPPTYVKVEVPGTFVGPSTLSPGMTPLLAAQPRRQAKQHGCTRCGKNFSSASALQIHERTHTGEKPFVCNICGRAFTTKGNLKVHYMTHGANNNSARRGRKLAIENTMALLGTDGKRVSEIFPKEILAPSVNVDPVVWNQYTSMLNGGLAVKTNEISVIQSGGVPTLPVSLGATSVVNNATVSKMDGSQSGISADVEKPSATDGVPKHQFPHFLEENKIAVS
Technique: universal PBM
Molecule type: double-stranded DNA, one strand shown
Matrix: in vitro
Tested at: 600 nM
Setting: 8-mer, flanks averaged, mean of replicates
Direction: higher = stronger binding
Strand	E-score
GAGGTACC	-0.395
ACGGCCCA	-0.207
GAGGGATC	-0.25
TATGCGGA	0.147
ATCAGCTG	0.034
GTGTGAAA	0.258
GCTGAACA	-0.0597
CATCACAC	-0.0397
ACTACCTC	-0.0134
ACCACGCC	-0.215
AGCCCGAA	-0.208
ACTCGGGG	-0.263
CCAATTAC	0.0821
GTGCCCAA	-0.173
GCCAAATA	0.107
GGGAACGA	-0.2

Set 4
Target: Fragile X messenger ribonucleoprotein 1, C-terminal low-complexity region (Fmr1, Mus musculus, UniProt P35922)
Technique: RNA Bind-n-Seq
Molecule type: RNA
Matrix: in vitro
Tested at: 200 nM
Setting: whole 134-nt RNA, ends assumed
Together with: 150 mM LiCl
Baseline: input library
Direction: higher = stronger binding
Library: 7-deaza-guanosine replaces G
Constant ends, left off below: GGGAGUUCUACAGUCCGACGAUC … UGGAAUUCUCGGGUGUCAAGG
Strand	log2 enrichment
CACAGACAACACGCACCCACACAGACACAGAGGGAAGGGGUUGGGAUGGGCACAGGGUGCACAGCAGGGCGGGGUAGGACCCCAGCCCCU	0.274
UGUCCCAGGGAACGCCGGUGCAGAUGUGCUUCUUGUGGGCUCAGAGGCCUUCGUGCUGCUGGACGGGCAGGAGCUGACGCCUCGCUGGAC	-2.9
CCUCAAGUCCUGUGCUACACAUCGUAUGUACCGAAUCGGCCGGGGCCGGCCGGAAAGUAUUAUGUUACGCCGUUCGGAUCUGCACUUCCA	0.127
UAACUUUAGAGGAGGAUCUGAUGGAUAUGGCAGUGGACUUGGAUUUGGGGAUGGCUAUAAUGGGUAUGGAGGAGGACCUGGAGGUGGCAA	0.291
CACAGACAACACGCACCCACACAGACACAGCGGGAAGGGGUUGGGAUGGGGACAGGGUGCACAGCAGGGCGGGGUAGGACCCCAGCCCCU	-0.295
AAGUCCUGUGCUACACAUCGUAUGUACCGAAUCGGGGAAAGGGGAAAGGGAAAGGGAAAGUAUUAUGUUACGCCGUUCGGAUCUGCACUU	0.183
GUCCUGUGCUACACAUCGUAUGUACCGAAUCGGGGAGGGGUUUUUUUGGGGAAAGGGGAAAGUAUUAUGUUACGCCGUUCGGAUCUGCAC	0.855
GCAGGAAGUAAAAACAAAUGGAAAUGGUUCGGAUAGUGGCAGGGGUGGGGGUUGCUAAGGAAAGGGUGGGAUGGGAGUGGGUAAAGAGUU	1.41
AAGUCCUGUGCUACACAUCGUAUGUACCGAAUCGGCCCCGGGCCCCGGGGCCCCGGGAAAGUAUUAUGUUACGCCGUUCGGAUCUGCACU	-2.5
CAAGUCCUGUGCUACACAUCGUAUGUACCGAAUCGGGGCCGGGGCCGGGGCCGGGGAAAGUAUUAUGUUACGCCGUUCGGAUCUGCACUU	-0.55
UGUGCUACACAUCGUAUGUACCGAAUCGGGGUUUUUUUGGGGUUUUUUUGGGGAAAAAGGGGAAAGUAUUAUGUUACGCCGUUCGGAUCU	0.172

Set 5
Target: CEP164, C-terminal peptide (human)
Technique: DHFR complementation, deep sequencing
Matrix: yeast
Setting: single substitutions, model-inferred values
Baseline: wild type
Direction: higher = weaker binding
Starting sequence: PDZK1, PDZ domain 2 (human); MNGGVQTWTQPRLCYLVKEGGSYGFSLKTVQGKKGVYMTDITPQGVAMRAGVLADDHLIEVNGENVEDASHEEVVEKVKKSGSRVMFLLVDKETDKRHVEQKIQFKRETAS; partner HNRVKVYRF
Variant	binding free energy change [kcal/mol]
E93I	-0.112
S22N	0.473
R84I	0.143
A54W	0.318
D40K	1.3
Q31G	0.16
V85L	0.297
T7Q	-0.00295
Q31K	0.0935
I41S	1.78
D56M	0.0774
K28L	-0.345
K96R	-0.0294
V74M	1.04
E72K	0.812
A50C	0.153
D55W	0.671
E73S	0.0395
I41G	1.43
K33H	0.297
V46Y	1.01
H71Y	0.447
V74K	1.12
V78C	0.938
V52N	1.06

Set 6
Target: RNA binding protein fox-1 homolog 2, RRM domain, GST-SBP tag (RBFOX2, Homo sapiens, UniProt O43251-10, residues 100-194)
Technique: RNA Bind-n-Seq
Molecule type: RNA
Matrix: in vitro
Tested at: 365 nM
Setting: natural RNA segment, single round, ends assumed
Baseline: no-protein control
Direction: higher = stronger binding
Constant ends, left off below: GGGAGUUCUACAGUCCGACGAUC … UGGAAUUCUCGGGUGCCAA
Target sequence (chain): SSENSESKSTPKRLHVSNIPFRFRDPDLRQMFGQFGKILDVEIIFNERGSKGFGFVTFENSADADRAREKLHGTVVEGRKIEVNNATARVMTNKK
Strand	RBNS enrichment (R)
UUAGGUAUCAGAAGAUUUUGCCUUAUUCUGAGGUCGGACUAGGGCCAAGCAAGCUUUUUCCUUCAUAUGAGCUGUCAUACUGUAUUUUGACCUCUUUCUGCACGAAAAAA	1.56
UCCCAGUUUUGCCACUCUCUGGAGCCAGAUCCUGGGAGCUGUCAGCAAGGAGCAGGUAAGUGAGCAGUUAUGGACAGCACUUUCCAUGUGGUGCUUCCGACCCUGGCUGU	5.24
GGUUGUUCCUGCUGCCAAGUGCUCUGUGACCAUGGCCUUUGCCUAGUGGAGGGAACUCAGUGGAGGAUGUGCCCAGCAGUGGCCGGGGCUGCUUCUGUAACCAAGGUCUG	0.428
GGAGCCGACCUGGGGCUGCACAUCCCUGCCCAUCCCCAGAAAGACUGUUCCUGUCAGGAUUUGUUUCCCUCUGCUGUGGCGGUGACUGCUUCUGGACCAGAACAGCUCCA	0.216
GGGACGGUCCCCACCCCCAGGGACACAACCCCUGGUCUUGGACCAGUAGAGGACACGGAGGGUUCAGACCCCUCCUCAGACCCUCCCCACAUCUGAAACUGCCUCCCCCC	0.442
UCCUGGCAUGUGCUAGGGUAAACGAAGGCAUAAUAAGCCAUGGCUGACCUCUGGAGCACCAGGUGCCAGGACUUGUCUCCAUGUGUAUCCAUGCAUUAUAUACCCUGGUG	2.08
AGCUAAUUGGACUUUUAUGGCUCUAUCUUUUCCUUCAGUGAAGAACCCUAUUUAAAACUGGGUCAUCAUUUGUCCUGUUCUAGCAAGAUAGUCUUCAGUUUCAUUUUCCU	0.493
UUAAAUAAAGUCAUGAUCAGUGUGCAUUUGUGAUUAUAUGUGUACUCAUUCUCUUACCUAGCGAACAAGAUCUUUUCAGAGUGGUGUUUCUAAAAGAGCAUGUACAAAAG	0.611
GAGUCACUGGAUAUCAGUGGAGACUACUGUGGUCUUCCCACGCAUGGGCCGUGGCUUUCAGUUCUCAGCACAGACAUCUGUGUUUUUCUCGUCCAACCCUAAGCCUCUUC	3.54
ACUUUCUUGGAGAACCCCAUUGUGCACCCUGAGUUCUGCCUGUGCUUCGGCUGAUCCCAUAUUGGACCGGAUAGAGCUCAGCUCUUGCCUUUGUUGCUGCUAACACUGGA	0.307
UCCUCUAUCCUGGUAACUCCUCACUGUACUGAUUUACUGGUGCAUGCAAUUCUGUUAAAAAAUGUAUUCUUCUGAAUAAAGAGAAUAUUCACUAUUUAACUGCAAACCAA	1.02
GCGAGCAAUUGCUAGUUGUCUUGAGGAGCAUGAGGAAUUCAGGAGCAGAAGGUCAGGAUAGCAUGAGAUAGUCUCAAUGUGGCCAACCAAAAGGACAAAACUGACAGGAA	15.4
